{"data": "Assay results from different studies", "note": "A part holds a random share of what one study measured. Changes are numbered by the printed parent chain."}
{"data": "Series 1", "target": "Ras GTPase-activating protein-binding protein 1, full length (G3BP1, Homo sapiens, UniProt Q13283)", "method": "RNA Bind-n-Seq", "molecule type": "RNA", "medium": "in vitro", "tested at": "200 nM", "setting": "whole 134-nt RNA, ends assumed", "with": "150 mM LiCl", "baseline": "input library", "direction": "higher = stronger binding", "each molecule": "7-deaza-guanosine replaces G", "UniProt Q13283, sequence (whole entry, looked up)": "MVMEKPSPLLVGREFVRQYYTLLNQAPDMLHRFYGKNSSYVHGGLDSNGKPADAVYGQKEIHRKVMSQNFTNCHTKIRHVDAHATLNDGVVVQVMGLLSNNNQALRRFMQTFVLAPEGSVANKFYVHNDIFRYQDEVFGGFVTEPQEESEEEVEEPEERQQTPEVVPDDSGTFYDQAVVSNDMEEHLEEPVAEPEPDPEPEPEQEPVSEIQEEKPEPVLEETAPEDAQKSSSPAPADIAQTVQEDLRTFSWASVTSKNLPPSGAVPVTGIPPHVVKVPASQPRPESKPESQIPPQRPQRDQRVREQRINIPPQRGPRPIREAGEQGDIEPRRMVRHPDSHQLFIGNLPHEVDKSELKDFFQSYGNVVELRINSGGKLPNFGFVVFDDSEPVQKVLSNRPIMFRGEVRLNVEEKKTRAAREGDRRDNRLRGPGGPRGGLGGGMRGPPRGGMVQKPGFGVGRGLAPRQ"}
{"Oligonucleotide": "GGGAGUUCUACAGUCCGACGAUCAAGUCCUGUGCUACACAUCGUAUGUACCGAAUCGGUUUGGAAAAAAAGGUUUUUGGAAAGUAUUAUGUUACGCCGUUCGGAUCUGCACUUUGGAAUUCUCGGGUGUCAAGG", "log2 enrichment": -2.51}
{"Oligonucleotide": "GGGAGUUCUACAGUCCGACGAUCUUUCUCCAUUGCAGGAAGUUGGCAGUAUCAUCGGAAAGGUAAGACAAUUUCACUUCAACUUCAAUUACCAUUUAGUAAUUCUGGAUUGAAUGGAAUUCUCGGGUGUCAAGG", "log2 enrichment": -0.997}
{"Oligonucleotide": "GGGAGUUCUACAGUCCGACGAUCCUCAAGUCCUGUGCUACACAUCGUAUGUACCGAAUCGGCGGGGCGGGGCGGGGAAAGUAUUAUGUUACGCCGUUCGGAUCUGCACUUCCAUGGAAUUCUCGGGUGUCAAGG", "log2 enrichment": 0.27}
{"Oligonucleotide": "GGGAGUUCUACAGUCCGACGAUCGCAGGAAGUAAAAACAAAUGGAAAAACUUCGGAUAGUGGCAGGGGUGGGGGUUGCUAAGGAAAGGGUGGGAUGGGAGUGGGUAAAGAGUUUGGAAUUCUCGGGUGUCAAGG", "log2 enrichment": 0.0635}
{"Oligonucleotide": "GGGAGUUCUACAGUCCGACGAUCUCCUGUGCUACACAUCGUAUGUACCGAAUCGGGUUUGGGUUUUUUUGGGUUUUUUUGGGAAAGUAUUAUGUUACGCCGUUCGGAUCUGCAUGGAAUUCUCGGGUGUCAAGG", "log2 enrichment": 0.77}
{"Oligonucleotide": "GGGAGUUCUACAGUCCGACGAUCUGGCCGUGGUGGCAUGCGGGGAGGAAGAGGUGGCCUCAUGGAUCGUGGUGGUCCCGGUGGAAUGUUCAGAGGUGGCCGUGGUGGAGACAGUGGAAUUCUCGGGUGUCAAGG", "log2 enrichment": 0.33}
{"Oligonucleotide": "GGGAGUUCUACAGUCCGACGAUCUGGGAGGUGGAUUUUGUUUAUUUUUUUAGCUCAUUUCCAGGGGUGGCAAUUUUUUUUUAAUAUGUGUCAUGAAUAAAGUUGUUUUUGAAAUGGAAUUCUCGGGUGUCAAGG", "log2 enrichment": -0.809}
{"Oligonucleotide": "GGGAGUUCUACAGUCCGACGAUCCACAGACAACACGCACCCACACAGACACAGAGGGAAGGGGUUGGGAUGGGGACAGGGUGCACAGCAGCGCGGGGUAGGACCCCAGCCCCUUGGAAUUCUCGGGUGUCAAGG", "log2 enrichment": 0.498}
{"data": "Series 2", "target": "Sox, HMG box (Pigoraptor chileana)", "method": "Spec-seq", "molecule type": "double-stranded DNA, one strand shown", "medium": "in vitro", "tested at": "not given", "setting": "whole probe, mean of replicates", "baseline": "not given", "direction": "lower = stronger binding", "constant ends, left off below": "GAGTCGTCTCGTCAGCAC … CCGTAGAGCACTCAGGTC", "Residues (chain)": "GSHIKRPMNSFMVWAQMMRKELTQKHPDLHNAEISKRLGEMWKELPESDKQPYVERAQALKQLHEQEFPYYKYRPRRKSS"}
{"Oligonucleotide": "GATCGTT", "relative binding energy [ln ratio]": 1.17}
{"Oligonucleotide": "ACTGGTT", "relative binding energy [ln ratio]": -0.232}
{"Oligonucleotide": "CACGGTT", "relative binding energy [ln ratio]": 0.626}
{"Oligonucleotide": "CATGTGC", "relative binding energy [ln ratio]": 0.772}
{"Oligonucleotide": "TATAGTT", "relative binding energy [ln ratio]": -1.28}
{"Oligonucleotide": "CATAAAC", "relative binding energy [ln ratio]": -0.42}
{"Oligonucleotide": "CATTATT", "relative binding energy [ln ratio]": -2.1}
{"Oligonucleotide": "ACGGGTT", "relative binding energy [ln ratio]": 0.285}
{"Oligonucleotide": "GAAGGTT", "relative binding energy [ln ratio]": 1.4}
{"data": "Series 3", "target": "CCNB2, cyclin fold, Cln2 fusion (human)", "method": "yeast growth competition, sequencing", "medium": "yeast", "setting": "weak parent motif", "baseline": "not given", "direction": "higher = stronger binding", "starting sequence": "CCP110 docking peptide (human); EKVKRRLDLDIDG"}
{"Substitution": "EKVKARLDLDIDG [R5A]", "normalised enrichment score": -0.0702}
{"Substitution": "EKVKRRLDLDIAG [D12A]", "normalised enrichment score": 0.0093}
{"Substitution": "EKAKRRLDLDIDG [V3A]", "normalised enrichment score": -0.354}
{"Substitution": "EKVKKRLDFDIDG [R5K L9F]", "normalised enrichment score": 3.37}
{"Substitution": "EKVKARADLDIDG [R5A L7A]", "normalised enrichment score": -0.0299}
{"Substitution": "EKVARRLDLDIDG [K4A]", "normalised enrichment score": 0.206}
{"Substitution": "EKVKRALDLDIDG [R6A]", "normalised enrichment score": 0.101}
{"Substitution": "AKVKRRLDLDIDG [E1A]", "normalised enrichment score": 0.476}
{"data": "Series 4", "Substance": "PhoQ, residues 284 288 289 292 302 303 SASVAL", "method": "Sort-seq", "item": "YFP reporter", "medium": "E. coli", "setting": "PhoQ-PhoP variant library", "with": "10 µM Mg2+", "baseline": "high Mg2+ state", "direction": "higher = stronger signaling"}
{"target": "PhoP, residues 12 14 15 18 19 TQAML (Escherichia coli, UniProt P23836)", "fold induction": 1.21}
{"target": "PhoP, residues 12 14 15 18 19 NQCAL (Escherichia coli, UniProt P23836)", "fold induction": 6.45}
{"target": "PhoP, residues 12 14 15 18 19 LHTVL (Escherichia coli, UniProt P23836)", "fold induction": 9.56}
{"note": "Some of these lines once more (series 4):"}
{"target": "PhoP, residues 12 14 15 18 19 NQCAL (Escherichia coli, UniProt P23836)", "fold induction": 6.45}
{"target": "PhoP, residues 12 14 15 18 19 LHTVL (Escherichia coli, UniProt P23836)", "fold induction": 9.56}
{"target": "PhoP, residues 12 14 15 18 19 TQAML (Escherichia coli, UniProt P23836)", "fold induction": 1.21}
